{"data": "Assay results gathered from unrelated publications", "cell line": "NCI-H1975", "note": "Protocols differ between the studies behind these lines."}
{"SMILES": "CN1CCN(c2ccc(C(=O)Nc3n[nH]c4ccc(Cc5cc(F)cc(F)c5)cc34)c(NC3CCOCC3)c2)CC1", "effect on": "cell growth or viability", "method": "MTT", "time": "72 h", "measurement": "IC50", "value": "1550 nM"}
{"SMILES": "CC(C)Oc1ccc(S(=O)(=O)c2ccc(Oc3ccc(C(=O)C(Cl)Cl)cc3[N+](=O)[O-])cc2)cc1", "effect on": "cell growth or viability", "method": "MTT", "time": "72 h", "measurement": "IC50", "value": "330 to 880 nM"}
{"SMILES": "COc1cc(N(C)CCN(C)C)c(NC(=O)/C=C/c2ccc3nc(C)ccc3c2)cc1Nc1nccc(-c2cn(C)c3ccccc23)n1", "effect on": "cell growth or viability", "method": "MTT", "time": "72 h", "measurement": "IC50", "value": "400 nM"}
{"SMILES": "CCOC(=O)COc1cc(Oc2ccc(S(=O)(=O)c3ccc(OC(C)C)cc3)cc2)c([N+](=O)[O-])cc1C(=O)C(Cl)Cl", "effect on": "cell growth or viability", "method": "MTT", "concentration": "2.5 µM", "measurement": "inhibition", "value": "> 95%"}
{"SMILES": "COc1cc2ncnc(Nc3ccc(F)c(Cl)c3)c2cc1NC(=O)/C=C/CN(C)C", "effect on": "cell growth or viability", "method": "SRB", "time": "72 h", "measurement": "IC50", "value": "300 to 400 nM"}
{"SMILES": "COc1cc(N(C)CCN(C)C)c(NC(=O)/C=C/c2cc(F)cc(Cl)c2)cc1Nc1nccc(-c2cn(C)c3ccccc23)n1", "effect on": "cell growth or viability", "method": "MTT", "time": "72 h", "measurement": "IC50", "value": "255 nM"}
{"SMILES": "O=C(NCCN1CCOCC1)c1cc2c3ccccc3n3c(=O)ccc(n1)c23", "effect on": "cell growth or viability", "method": "MTT", "time": "72 h", "measurement": "IC50", "value": "1300 nM"}
{"SMILES": "CCN1CCN(c2ccc(Nc3ncc(C)c(Nc4ccc5cn[nH]c5c4)n3)cc2OC)CC1", "method": "annexin V-FITC/PI flow cytometry", "concentration": "3 µM", "time": "24 h", "measurement": "apoptotic cells", "value": "46.9%"}
{"SMILES": "CC[C@H](C(=O)N1CCCC[C@H]1C(=O)O[C@H](CCc1ccc(OC)c(OC)c1)c1cccc(OCC(=O)NCCOCCOCCN(C)C/C=C/C(=O)Nc2cc3c(Nc4ccc(F)c(Cl)c4)ncnc3cc2OC)c1)c1cc(OC)c(OC)c(OC)c1", "method": "annexin V/PI flow cytometry", "concentration": "1 µM", "time": "48 h", "notes": "DMSO 3.5%", "measurement": "apoptotic and dead cells", "value": "42.9%"}
{"SMILES": "O=C(NN=Cc1ccc(O)cc1)Nc1cc2c(Nc3ccc(F)c(Cl)c3)ncnc2cc1OC1CCOC1 (stereo not drawn)", "effect on": "cell growth or viability", "method": "MTT", "time": "72 h", "measurement": "IC50", "value": "> 100000 nM"}
{"SMILES": "CCOC(=O)/C(=N\\Nc1ccc(S(=O)(=O)Nc2ncccn2)cc1)C(=O)c1ccccc1", "effect on": "cell growth or viability", "method": "MTT", "time": "48 h", "measurement": "IC50", "value": "10300 nM"}
{"SMILES": "COc1cc(N(C)CCN(C)C)c(NC(=O)/C=C/c2ccc3c(c2)OCCO3)cc1Nc1nccc(-c2cn(C)c3ccccc23)n1", "effect on": "cell growth or viability", "method": "MTT", "time": "72 h", "measurement": "IC50", "value": "121 nM"}
{"SMILES": "CCN1CCN(Cc2ccc(C(=O)Nc3ccc(C)c(NCc4cnc5[nH]ccc5c4OC)c3)cc2C(F)(F)F)CC1", "effect on": "cell growth or viability", "time": "48 h", "measurement": "GI50", "value": "890 nM"}
{"SMILES": "COc1cc(N(C)CCN(C)C)c(NC(=O)/C=C/c2ccc3c(c2)OCO3)cc1Nc1nccc(-c2cn(C)c3ccccc23)n1", "effect on": "cell growth or viability", "method": "MTT", "time": "72 h", "measurement": "IC50", "value": "105 nM"}
{"SMILES": "C=CC(=O)Nc1cc(Nc2nccc(-n3ccc4nc(OC)ccc43)n2)c(OC)cc1N(C)CCN(C)C", "effect on": "cell growth or viability", "method": "ATP luminescence", "time": "72 h", "measurement": "IC50", "value": "1 nM"}
{"note": "Excerpt of the above:"}
{"SMILES": "COc1cc(N(C)CCN(C)C)c(NC(=O)/C=C/c2ccc3c(c2)OCCO3)cc1Nc1nccc(-c2cn(C)c3ccccc23)n1", "effect on": "cell growth or viability", "method": "MTT", "time": "72 h", "measurement": "IC50", "value": "121 nM"}
{"SMILES": "O=C(NN=Cc1ccc(O)cc1)Nc1cc2c(Nc3ccc(F)c(Cl)c3)ncnc2cc1OC1CCOC1 (stereo not drawn)", "effect on": "cell growth or viability", "method": "MTT", "time": "72 h", "measurement": "IC50", "value": "> 100000 nM"}
